Results gathered from unrelated publications.
Compare with care: the assays were run in different laboratories. Numbers after ± are the reported error.
UniProt Q8NER1, sequence (whole entry, looked up): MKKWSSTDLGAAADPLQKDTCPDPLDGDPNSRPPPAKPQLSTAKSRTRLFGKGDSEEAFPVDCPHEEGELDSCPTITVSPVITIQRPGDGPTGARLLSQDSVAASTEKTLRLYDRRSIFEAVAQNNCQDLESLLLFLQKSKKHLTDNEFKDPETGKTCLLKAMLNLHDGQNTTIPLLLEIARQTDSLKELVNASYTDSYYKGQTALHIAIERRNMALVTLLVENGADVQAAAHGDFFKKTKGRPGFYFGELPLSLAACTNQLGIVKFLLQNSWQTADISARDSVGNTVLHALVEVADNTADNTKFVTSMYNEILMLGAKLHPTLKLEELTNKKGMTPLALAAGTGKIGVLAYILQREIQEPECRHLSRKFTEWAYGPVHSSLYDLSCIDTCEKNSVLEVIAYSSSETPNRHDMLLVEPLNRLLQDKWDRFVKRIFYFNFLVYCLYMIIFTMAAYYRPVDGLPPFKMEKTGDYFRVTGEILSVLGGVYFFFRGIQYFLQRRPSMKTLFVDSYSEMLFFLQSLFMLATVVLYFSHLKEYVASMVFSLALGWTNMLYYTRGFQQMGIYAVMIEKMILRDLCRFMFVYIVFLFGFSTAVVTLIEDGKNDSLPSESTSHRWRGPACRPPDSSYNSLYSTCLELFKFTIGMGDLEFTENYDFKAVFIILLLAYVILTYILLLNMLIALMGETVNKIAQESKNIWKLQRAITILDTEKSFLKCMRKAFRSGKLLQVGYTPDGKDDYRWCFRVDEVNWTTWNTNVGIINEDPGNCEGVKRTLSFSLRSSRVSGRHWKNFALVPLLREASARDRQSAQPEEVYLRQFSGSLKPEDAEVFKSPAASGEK
UniProt Q09161, sequence (whole entry, looked up): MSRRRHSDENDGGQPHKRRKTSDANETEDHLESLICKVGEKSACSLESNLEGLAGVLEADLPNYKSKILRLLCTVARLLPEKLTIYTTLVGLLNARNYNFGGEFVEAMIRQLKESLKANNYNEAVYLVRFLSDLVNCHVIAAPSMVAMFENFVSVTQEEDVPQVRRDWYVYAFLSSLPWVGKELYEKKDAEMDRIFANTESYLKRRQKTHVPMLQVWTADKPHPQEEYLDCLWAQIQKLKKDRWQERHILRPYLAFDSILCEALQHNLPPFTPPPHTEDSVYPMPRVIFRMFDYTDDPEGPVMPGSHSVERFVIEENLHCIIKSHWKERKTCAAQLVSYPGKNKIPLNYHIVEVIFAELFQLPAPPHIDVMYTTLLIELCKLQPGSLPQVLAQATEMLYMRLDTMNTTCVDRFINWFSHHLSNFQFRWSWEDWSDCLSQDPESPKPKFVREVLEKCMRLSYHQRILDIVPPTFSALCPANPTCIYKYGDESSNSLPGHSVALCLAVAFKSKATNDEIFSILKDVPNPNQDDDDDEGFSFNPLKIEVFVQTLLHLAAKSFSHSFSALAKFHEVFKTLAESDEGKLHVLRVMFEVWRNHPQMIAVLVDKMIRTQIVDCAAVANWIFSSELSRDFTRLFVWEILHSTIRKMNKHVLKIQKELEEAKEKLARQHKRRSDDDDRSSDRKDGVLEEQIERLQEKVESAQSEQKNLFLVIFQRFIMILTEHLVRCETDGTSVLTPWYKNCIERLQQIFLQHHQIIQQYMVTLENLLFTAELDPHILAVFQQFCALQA

CC[C@H](C)[C@@H]1NC(=O)[C@@H]2CCCN2C(=O)[C@H](CC(C)C)NC(=O)[C@H](CC(C)C)NC(=O)CNC(=O)[C@@H](NC(=O)[C@@H](NC(=O)[C@H](CC(=O)O)NC(=O)CNC(=O)[C@@H](NC(=O)[C@H](C)NC(=O)CNC(=O)[C@H](CCCCN)NC(=O)[C@H](CC(C)C)NC(=O)[C@H](CC(C)C)NC(=O)[C@H](CCCCN)NC(=O)CNC(=O)[C@@H](NC(=O)[C@@H](N)CC(C)C)C(C)C)C(C)C)C(C)C)CSSC[C@@H](C(=O)O)NC1=O  log2 fold change (RNA-seq, refers to: Zswim4; mouse, traumatic brain injury model, frontal cortex and hippocampus; dose not given; reference: TBI alone): -1.3
CO[C@H]1C[C@@H]2CC[C@@H](C)[C@@](O)(O2)C(=O)C(=O)N2CCCC[C@H]2C(=O)O[C@H]([C@H](C)C[C@@H]2CC[C@@H](OC(=O)NCCOCCOCCOCCOCCOCCOCCOCCOCCC(=O)N3CCc4cc(Cn5nc(-c6ccc7oc(N)nc7c6)c6c(N)ncnc65)ccc4C3)[C@H](OC)C2)C[C@@H](O)[C@H](C)/C=C(\C)[C@@H](O)[C@@H](OC)C(=O)[C@H](C)C[C@H](C)/C=C/C=C/C=C/1C  incidence of Mucositis TEAE (patients with advanced solid tumours; intravenous, 1.6 mg/3 mg weekly, grade ≥3): 0%
Cc1cc(C)c(CNC(=O)c2cc(Cl)c3c(c2C)O[C@@](C)([C@H]2CC[C@H](N(C)C)CC2)O3)c(=O)[nH]1  incidence of tumour-associated fever (relapsed/refractory NHL patients; dose not given, trial, safety set, all TEAEs grade 5): 0%
COc1cc2c(Oc3ccc4[nH]c(C)cc4c3F)ccnc2cc1OCC1(N)CC1  grade 1 or 2 Vomiting (paediatric recurrent refractory sarcoma; 10 mg): 50%
COc1ccc(C[C@@H]2NC(=O)[C@H]([C@@H](C)O)NC(=O)[C@@H]3[C@@H]4CCN3C(=O)[C@@H]3Cc5cn(c6ccc(F)cc56)CCCCCCN(Cc5ccc(cc5)CCNC(=O)[C@]5(C)CCCN5C2=O)C(=O)CCC(=O)N[C@@H](C)C(=O)N[C@H](CNC(=O)CCCCC[N+](C)(C)C)C(=O)N[C@@H](Cc2cccc(c2)CNC(=O)CO4)C(=O)N3)cc1  participants with adverse event (refers to: Nasopharyngitis; humans; concentration not given, Study-001): 13.7%
O=C(Nc1ccccc1)C1CCN(C(=O)Oc2cccnc2)CC1  subjects with Phlebitis adverse event (adverse event reporting; healthy women; oral, 100 mg): 7.7%
C[C@@H](O)[C@@H](CO)NC(=O)[C@@H](CCCNC(=N)N)NC(=O)[C@@H]1CCCN1C(=O)[C@@H]1CSSC[C@H](NC(=O)[C@H](Cc2ccccc2)NC(=O)CN2CCN(CC(=O)O)CCN(CC(=O)O)CCN(CC(=O)O)CC2)C(=O)N[C@@H](Cc2ccc(O)cc2)C(=O)N[C@@H](Cc2ccccc2)C(=O)N[C@@H](CCC(N)=O)C(=O)N[C@@H](CC(N)=O)C(=O)N1 [gallium-68 labelled]  tissue uptake (healthy Wistar rat, blood; intravenous, 8 MBq, 120 min, individual animals): 0.14 %ID/g
C[C@H]1CN(c2n[nH]c3nc(N[C@H]4CC[C@H](NS(=O)(=O)CCC(F)(F)F)CC4)ncc23)CCO1  remaining binding (Nuclear cap-binding protein subunit 1 (Homo sapiens, UniProt Q09161); Kinobeads competition, refers to: NCBP1; 0.8 µM, unit not given; reference: vehicle): 1.3
CCCCCCCCCCCCCCCC(=O)N[C@@H](CCC(=O)NCCCC[C@H](NC(=O)[C@H](CC(=O)O)NC(=O)[C@H](CO)NC(=O)[C@@H](NC(=O)[C@H](Cc1ccccc1)NC(=O)[C@@H](NC(=O)CNC(=O)[C@H](CCC(N)=O)NC(=O)[C@H](CO)NC(=O)[C@@H](N)Cc1c[nH]cn1)[C@@H](C)O)[C@@H](C)O)C(=O)N[C@@H](CO)C(=O)N[C@@H](CCC(=O)O)C(=O)N[C@@H](Cc1ccc(O)cc1)C(=O)N[C@@H](CC(C)C)C(=O)N[C@@H](CC(=O)O)C(=O)N[C@@H](CO)C(=O)N[C@@H](CCC(=O)O)C(=O)N[C@@H](CCCNC(=N)N)C(=O)N[C@@H](C)C(=O)N[C@@H](CCCNC(=N)N)C(=O)N[C@@H](CC(=O)O)C(=O)N[C@@H](Cc1ccccc1)C(=O)N[C@H](C(=O)N[C@@H](C)C(=O)N[C@@H](Cc1c[nH]c2ccccc12)C(=O)N[C@@H](CC(C)C)C(=O)N[C@@H](CCC(=O)O)C(=O)N[C@@H](C)C(=O)NCC(=O)NCC(=O)O)C(C)C)C(=O)O  abdominal distension (human, CrCl ≥45 to <60 mL/min; sc, 100 µg single dose): 0%
CN1CC[C@@H](c2c(O)cc(O)c3c(=O)cc(-c4ccc(C(F)(F)F)cc4Cl)oc23)[C@@H]1CO  patients with adverse event (refers to: Hyperglycemia; relapsed B-cell malignancies; oral, 100 mg, grade 3-4, intermittent dosing): 0%
CC[C@H](C)[C@H](NC(=O)[C@H](Cc1ccccc1)NC(=O)[C@H](CCC(=O)O)NC(=O)[C@H](CCCNC(=N)N)NC(=O)[C@H](C)NC(=O)[C@H](C)NC(=O)[C@H](CCC(N)=O)NC(=O)[C@H](CCC(=O)O)NC(=O)[C@H](CCC(=O)O)NC(=O)[C@H](CC(C)C)NC(=O)[C@H](Cc1ccc(O)cc1)NC(=O)[C@H](CO)NC(=O)[C@H](CO)NC(=O)[C@@H](NC(=O)[C@H](CC(=O)O)NC(=O)[C@H](CO)NC(=O)[C@@H](NC(=O)[C@H](Cc1ccccc1)NC(=O)[C@@H](NC(=O)CNC(=O)[C@H](CCC(=O)O)NC(=O)[C@H](C)NC(=O)CCc1c[nH]cn1)[C@@H](C)O)[C@@H](C)O)C(C)C)C(=O)N[C@@H](C)C(=O)N[C@@H](Cc1c[nH]c2ccccc12)C(=O)N[C@@H](CC(C)C)C(=O)N[C@H](C(=O)N[C@@H](CCCNC(=N)N)C(=O)NCC(=O)N[C@@H](CCCNC(=N)N)C(=O)N[C@@H](CCCCNC(=O)COCCOCCNC(=O)COCCOCCNC(=O)CC[C@H](NC(=O)CCCCCCCCCCCCCCCCC(=O)O)C(=O)O)C(=O)NCC(=O)NCC(=O)N[C@@H](CO)C(=O)N[C@@H](CCCCNc1c(NCCCCCN(O)C(=O)CCC(=O)NCCCCCN(O)C(=O)CCC(=O)NCCCCCN(O)C(C)=O)c(=O)c1=O)C(=O)O)C(C)C [zirconium-89 labelled]  tissue uptake (gamma counting; rat, stomach-duodenum content; subcutaneous, 3 nmol/kg, 72 h): 0.05 %ID/g
CC(C)C[C@H](NC(=O)[C@H](CCCCN)NC(=O)OCC1c2ccccc2-c2ccccc21)C(=O)N[C@H](C(=O)N[C@@H](Cc1ccccc1)C(=O)N[C@@H](Cc1ccccc1)C(=O)N[C@@H](CCCCN)C(=O)NCC(=O)N[C@@H](Cc1ccccc1)C(=O)N[C@@H](C)C(=O)N[C@@H](Cc1c[nH]c2ccccc12)C(=O)N[C@@H](CC(N)=O)C(=O)N[C@H](C(=O)N[C@H]1CSSC[C@@H](C(=O)N[C@@H](Cc2c[nH]cn2)C(=O)N[C@@H](CCCNC(=N)N)C(=O)N[C@@H](CCCNC(=N)N)C(=O)N[C@@H](C)C(=O)N[C@@H](CC(N)=O)C(N)=O)NC(=O)[C@H](C(C)C)NC(=O)[C@H](CCCNC(=N)N)NC(=O)[C@H](C(C)C)NC(=O)CNC(=O)[C@H](CC(N)=O)NC(=O)[C@H](CCCNC(=N)N)NC(=O)[C@H](Cc2ccc(O)cc2)NC(=O)[C@H](C(C)C)NC1=O)C(C)C)C(C)C  albumin (ICR mouse, blood; intramammary, 10 mg/kg, day 5, 3 d dosing): 35.1 ± 1.89 g/L
COc1cc(Nc2ncc(F)c(Nc3ccc4c(n3)NC(=O)C(C)(C)O4)n2)cc(OC)c1OC  IC50 (TRPV1 (Homo sapiens, UniProt Q8NER1)): > 10 µM
N.N.O=C([O-])C1(C(=O)[O-])CCC1.[Pt+2]  AUC to infinity (refers to: non-protein-bound platinum; human, plasma ultrafiltrate; dose not given, from 0, median, Bayesian estimate): 28300 ng·h/mL
C[C@]1(CO)Cc2ncn(-c3ccc(C#N)c(Cl)c3)c2C(=O)O1  AUC(0-inf) (human, plasma; 80 mg single dose, geometric mean): 17.3 µM·h
CCc1ccc(CC/C=C/c2ccc3c(c2)C(=O)CC3)cc1  prothrombin time (Sprague-Dawley rat, male, blood; oral, 120 mg/kg/day, 14 days): 12.9 s

Some of these lines once more:
COc1cc2c(Oc3ccc4[nH]c(C)cc4c3F)ccnc2cc1OCC1(N)CC1  grade 1 or 2 Vomiting (paediatric recurrent refractory sarcoma; 10 mg): 50%
COc1ccc(C[C@@H]2NC(=O)[C@H]([C@@H](C)O)NC(=O)[C@@H]3[C@@H]4CCN3C(=O)[C@@H]3Cc5cn(c6ccc(F)cc56)CCCCCCN(Cc5ccc(cc5)CCNC(=O)[C@]5(C)CCCN5C2=O)C(=O)CCC(=O)N[C@@H](C)C(=O)N[C@H](CNC(=O)CCCCC[N+](C)(C)C)C(=O)N[C@@H](Cc2cccc(c2)CNC(=O)CO4)C(=O)N3)cc1  participants with adverse event (refers to: Nasopharyngitis; humans; concentration not given, Study-001): 13.7%
O=C(Nc1ccccc1)C1CCN(C(=O)Oc2cccnc2)CC1  subjects with Phlebitis adverse event (adverse event reporting; healthy women; oral, 100 mg): 7.7%
